Assay results pooled from the literature.
Each numbered part is a random draw from the data of one study; scales do not carry over between parts.

Study 1
Target: Sal-like protein 4, full length isoform A (SALL4, Homo sapiens, UniProt Q9UJQ4, residues 1-1053)
Sequence of UniProt Q9UJQ4 (whole entry, looked up): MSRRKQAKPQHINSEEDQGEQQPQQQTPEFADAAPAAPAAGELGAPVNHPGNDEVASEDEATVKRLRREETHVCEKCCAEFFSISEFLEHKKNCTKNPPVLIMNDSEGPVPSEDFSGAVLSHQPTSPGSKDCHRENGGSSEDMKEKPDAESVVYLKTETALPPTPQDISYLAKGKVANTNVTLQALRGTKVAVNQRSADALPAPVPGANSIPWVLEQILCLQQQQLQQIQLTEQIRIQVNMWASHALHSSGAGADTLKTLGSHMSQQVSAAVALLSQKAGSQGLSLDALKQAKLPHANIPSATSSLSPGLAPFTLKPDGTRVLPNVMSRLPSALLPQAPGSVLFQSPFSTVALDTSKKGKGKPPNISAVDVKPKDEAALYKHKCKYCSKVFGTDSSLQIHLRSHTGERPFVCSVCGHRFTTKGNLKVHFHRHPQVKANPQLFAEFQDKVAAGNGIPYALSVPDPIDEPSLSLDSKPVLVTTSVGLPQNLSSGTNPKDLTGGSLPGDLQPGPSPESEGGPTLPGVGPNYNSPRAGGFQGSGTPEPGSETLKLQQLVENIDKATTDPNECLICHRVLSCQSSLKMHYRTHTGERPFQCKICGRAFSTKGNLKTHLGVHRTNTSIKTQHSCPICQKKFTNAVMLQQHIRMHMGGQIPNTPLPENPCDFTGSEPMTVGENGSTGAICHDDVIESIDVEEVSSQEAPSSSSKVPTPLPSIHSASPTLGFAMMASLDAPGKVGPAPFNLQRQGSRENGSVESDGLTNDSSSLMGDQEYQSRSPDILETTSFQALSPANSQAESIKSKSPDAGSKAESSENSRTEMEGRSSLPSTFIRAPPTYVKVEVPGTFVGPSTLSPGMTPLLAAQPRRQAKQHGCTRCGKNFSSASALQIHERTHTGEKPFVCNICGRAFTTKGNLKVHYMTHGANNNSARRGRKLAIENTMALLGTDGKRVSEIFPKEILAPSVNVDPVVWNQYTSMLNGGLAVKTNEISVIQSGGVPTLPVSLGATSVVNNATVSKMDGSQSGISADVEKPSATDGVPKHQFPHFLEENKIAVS
Method: universal PBM
Molecule type: double-stranded DNA, one strand shown
Matrix: in vitro
Tested at: 600 nM
Notes: 8-mer, flanks averaged, mean of replicates
Reading: higher = stronger binding
Measurement: E-score
CGATCTAC: -0.0416
TCACTCAA: 0.0958
CATTGAAA: 0.267
GAAGGCAA: 0.0246

Study 2
Target: Histone acetyltransferase KAT6A, winged helix 1, GST fusion (KAT6A, Homo sapiens, UniProt Q92794, residues 1-85)
Method: protein binding microarray
Molecule type: double-stranded DNA, one strand shown
Matrix: in vitro
Tested at: not given
Notes: 8-mer, flanks averaged, mean of 2 arrays, mostly near background
Relative to: not given
Reading: higher = stronger binding
Measurement: E-score
Construct (chain): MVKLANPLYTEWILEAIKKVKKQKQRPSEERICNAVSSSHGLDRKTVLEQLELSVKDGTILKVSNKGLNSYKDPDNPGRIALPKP
CAAGTAAA: -0.0511
ATCCACTA: -0.24
TATTAACA: -0.0255
GGTCGACA: -0.0411

Study 3
Target: Interferon regulatory factor 3, full length, phosphomimetic (IRF3, Homo sapiens, UniProt Q14653, residues 1-427, S386D/S396D/S398D/S402D/T404D/S405D)
Method: protein-binding microarray
Molecule type: double-stranded DNA, one strand shown
Matrix: in vitro
Tested at: 2540 nM top
Notes: 60-bp whole probe
Together with: salmon DNA 0.4 mg/ml
Relative to: random background probes
Reading: higher = stronger binding
Measurement: fitted relative affinity
Shared flanks, not repeated: GCCTAGCAC … GTCTTGATTCGCTTGACGCTGCTG
Residues (chain): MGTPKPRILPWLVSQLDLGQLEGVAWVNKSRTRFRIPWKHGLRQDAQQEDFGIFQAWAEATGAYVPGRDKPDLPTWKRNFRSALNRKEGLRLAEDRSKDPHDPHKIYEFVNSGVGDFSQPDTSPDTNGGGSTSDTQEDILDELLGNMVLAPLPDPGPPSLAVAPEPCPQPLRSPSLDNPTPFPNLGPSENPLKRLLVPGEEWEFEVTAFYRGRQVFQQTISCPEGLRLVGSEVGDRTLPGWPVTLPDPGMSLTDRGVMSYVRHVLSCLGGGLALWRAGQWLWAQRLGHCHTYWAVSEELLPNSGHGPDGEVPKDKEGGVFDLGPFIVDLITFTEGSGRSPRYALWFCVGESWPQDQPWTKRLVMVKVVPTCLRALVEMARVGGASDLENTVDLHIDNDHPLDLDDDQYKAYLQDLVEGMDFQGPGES
CATTCTCTGTTTATGTCTGGGTGCTAG: 5.48 z-score
TTAGATATCACTTTCGATTAGTGCTAG: 4.14 z-score
CACGATATCGGGTTTCGAGACGTGCTA: 1.01 z-score
GACGGTCTTGGACTGGGGACGTGCTAG: -0.51 z-score
TTGTTTTTCATTATTGTCTCGTGCTAG: 1.58 z-score

Single results of other studies
PhoQ, residues 284 288 289 292 302 303 TTSMTC  fold induction (PhoP, residues 12 14 15 18 19 LYHSL (Escherichia coli, UniProt P23836); Sort-seq, item: YFP reporter; E. coli; PhoQ-PhoP variant library, together with: 10 µM Mg2+; relative to: high Mg2+ state, higher = stronger signaling): 1.46

Repeated from above (study 3):
GACGGTCTTGGACTGGGGACGTGCTAG: -0.51 z-score
